Measured values from different studies.
Each line is one published result; not all experiments were run side by side. pIC50: −log10 of the molar value.
Target: Cytochrome P450 2C19 (CYP2C19, Homo sapiens, UniProt P33261)
UniProt P33261, sequence (whole entry, looked up): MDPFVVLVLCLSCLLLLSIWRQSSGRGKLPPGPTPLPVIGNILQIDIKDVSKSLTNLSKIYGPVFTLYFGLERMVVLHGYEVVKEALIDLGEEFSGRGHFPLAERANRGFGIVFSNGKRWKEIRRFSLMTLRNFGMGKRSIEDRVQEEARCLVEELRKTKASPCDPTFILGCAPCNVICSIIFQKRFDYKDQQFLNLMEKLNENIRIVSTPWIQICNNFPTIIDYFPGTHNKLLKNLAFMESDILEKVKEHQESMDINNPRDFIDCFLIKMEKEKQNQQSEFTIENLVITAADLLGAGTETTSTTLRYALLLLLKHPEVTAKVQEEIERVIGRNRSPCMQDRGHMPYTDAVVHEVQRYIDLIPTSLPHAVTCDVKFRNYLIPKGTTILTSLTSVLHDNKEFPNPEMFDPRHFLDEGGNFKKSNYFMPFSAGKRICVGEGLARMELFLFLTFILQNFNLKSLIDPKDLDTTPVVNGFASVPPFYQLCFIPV
Action: inhibitor

| SMILES | test | test system | setting | pIC50 |
| --- | --- | --- | --- | --- |
| CCC(=O)N(C)c1ccc(Cl)c(Cl)c1 | enzyme activity | human, liver microsomes | 1 h | < 4.60 |
| O=C(NC1CCC(F)(F)CC1)C(c1cncnc1)N(C(=O)C(F)Cl)c1ccc(-c2cncs2)cc1 (stereo not shown) | enzyme activity | – | 10 (unit not given) | 5.02 |
| O=C1c2oc3cc(O)c(O)cc3c2C(=O)c2oc3cc(O)c(O)cc3c21 | enzyme activity | human, liver microsomes | 1 h, pH 7.4 | 5.31 |
| C[C@@H](c1ccn(Cc2ccc(Cl)c(Cl)c2)n1)[C@](O)(Cn1cnnn1)c1ccc(F)cc1F | enzyme activity | human, liver microsomes | – | 6.14 |
| Cc1cc(/C=C/C#N)cc(C)c1Oc1nc(NC2CCN(Cc3ccc(S(C)(=O)=O)cc3)CC2)nc2ncccc12 | enzyme activity | human, liver microsomes | 10 min | 5.07 |
| O=C(O)c1ccc(/C=C2\SC(=S)N(Cc3cccc(C(F)(F)F)c3)C2=O)cc1 | enzyme activity | human, liver microsomes | – | < 4.30 |
| C[C@@H](c1ccn(Cc2ccc(OC(F)(F)F)cc2)n1)[C@](O)(Cn1cnnn1)c1ccc(F)cc1F | enzyme activity | human, liver microsomes | – | 5.86 |
| C[C@](C(=O)NC1CCC(F)(F)CC1)(c1cncnc1)N(C(=O)[C@H](F)Cl)c1ccc(OC(F)(F)F)cc1 | enzyme activity | – | 10 (unit not given) | < 4.30 |
| COC(=O)c1ccc2c(c1)NC(=O)/C2=C(\Nc1ccc2c(c1)CCN2C(=O)CN1CCOCC1)c1ccccc1 | – | recombinant enzyme | 10 min, together with: S-mephenytoin 30 µM | 4.13 |
| C[C@H]1CN(C(=O)c2cn(-c3ccnc(N)n3)c3cc(C#CC4(O)CCCCC4)ccc23)CCN1 | enzyme activity | human, liver microsomes | 10 min | 4.37 |
| O=c1nc(NO)ccn1[C@@H]1O[C@H](CO)[C@@H](O)[C@H]1O | enzyme activity | human, liver microsomes | 1 h, pH 7.4 | < 4.00 |
| C=CC(=O)Nc1cc(Nc2nccc(-c3cn(C)c4ccccc34)n2)c(OCC(F)(F)F)nc1N(C)CCN(C)C | enzyme activity | human, liver microsomes | – | < 4.00 |
| Cc1ccc(OCC(=O)N(Cc2cccs2)c2ccn[nH]2)cc1 | enzyme activity | human, liver microsomes | – | 5.89 |
| O=C(O)C(O)Cc1ccc(O)c(O)c1 (stereo not shown) | enzyme activity, fluorescence | – | – | 4.17 |
| COc1ccc2c(c1OCc1ccccc1)C[C@@H](C(=O)O)N(c1nc3ccc(C#N)cc3o1)C2 | enzyme activity | human, liver microsomes | 15 min, pH 7.4 | < 4.30 |
| NC(=O)c1c(F)ccc(OCc2nc3cc(Cl)cnc3s2)c1F | enzyme activity, fluorescence | – | – | < 4.47 |

Some of these lines once more:
| SMILES | test | test system | setting | pIC50 |
| --- | --- | --- | --- | --- |
| Cc1cc(/C=C/C#N)cc(C)c1Oc1nc(NC2CCN(Cc3ccc(S(C)(=O)=O)cc3)CC2)nc2ncccc12 | enzyme activity | human, liver microsomes | 10 min | 5.07 |
